# Measured values from different studies.
# Protocols differ between the studies behind these lines. ± gives the spread as reported.
Molecule,organism,assay,test system,setting,how to read,quantity,result
CC(C)C1NC(=O)C(C(=O)NC(C(=O)NC2C(=O)N3C2SC(C)(C)C3C(=O)O)c2ccccc2)=C1O (centres unmarked),Escherichia coli,broth microdilution,"BW25113, Mueller-Hinton broth","18 h, without clavulanic acid",,MIC,100 µg/mL
CC[C@@H](C(=O)[C@@H](C)[C@@H](O)[C@H](C)CCc1ccc(C)c(O)c1C(=O)O)[C@H]1O[C@](CC)([C@H]2CC[C@](O)(CC)[C@H](C)O2)C[C@@H]1C,Eimeria tenella,,"MDBK, sporozoites",maximum non-toxic concentration,relative to: DMSO,invasion rate,39.3%
Nc1ncnc2c1c(-c1ccc(OC(F)(F)F)cc1)cn2[C@@H]1O[C@H](CO)C[C@H]1O,Trichomonas vaginalis,resorufin,"G3, metronidazole-sensitive","24 h + 2 h, 2% O2",,EC50,790 ± 292 nM
CN(C)c1c(Cc2cccc3ccccc23)cc(=O)n2c1SCC2C(=O)Nc1ccccc1 (centres unmarked),Chlamydia trachomatis,"infectivity, second cycle","HeLa, serovar L2","2.5 µM, 48 h",relative to: DMSO,inhibition,~90%
Nc1ncnc2c1c(C1CCCCC1)cn2C1OC(CO)CC1O (centres unmarked),Trichomonas vaginalis,resorufin,"G3, metronidazole-sensitive","24 h + 2 h, 2% O2",,EC50,42800 ± 2180 nM
C[C@H]1[C@H](C)CC[C@]2(CO)CC[C@]3(C)C(=CC[C@@H]4[C@@]5(C)CC[C@H](O)C(C)(C)[C@@H]5CC[C@]43C)[C@H]12,Eimeria tenella,,sporozoites,"100 µM, 24 h",relative to: DMSO,viability,86.6%
CCOC(=O)c1c(N)csc1-c1cn(-c2ccccc2)nc1-c1ccc(C)cc1,Acinetobacter baumannii,broth microdilution,clinical urinary isolate,compound gamma-irradiated 0 kGy,,MIC,0.24 ± 0.1 µg/mL
CC1(C)SC2C(NC(=O)C(NC(=O)C3=C(O)CNC3=O)c3ccccc3)C(=O)N2C1C(=O)O (centres unmarked),Escherichia coli,broth microdilution,"BW25113, Mueller-Hinton broth",together with: CCCP 50 µg/mL,,MIC,25 µg/mL
CC(C)C[C@H](NC(=O)[C@H](CCc1ccccc1)NC(=O)CN1CCOCC1)C(=O)N[C@@H](Cc1ccccc1)C(=O)N[C@@H](CC(C)C)C(=O)[C@@]1(C)CO1,Babesia divergens,"parasite growth, parasitemia by blood smear",ex vivo blood culture,48 h,relative to: DMSO,minimum significant inhibitory concentration,≥ 25 nM
Nc1ncnc2c1c(-c1ccccc1)cn2[C@@H]1O[C@H](CO)C[C@H]1O,Trichomonas vaginalis,resorufin,"G3, metronidazole-sensitive","24 h + 2 h, 2% O2",,EC50,8300 ± 970 nM
O=c1[nH]c(=O)c2ncn(C[C@H](CF)OCP(=O)(O)O)c2[nH]1,herpes simplex virus 1,cytopathic effect,"HEL, KOS",,,EC50,> 313000 nM
COc1ccccc1C1Sc2ccc(C(F)(F)F)cc2NC2=C1C(=O)c1ccccc12 (centres unmarked),Chlamydia trachomatis,"inclusion formation, immunofluorescence imaging","HEp-2, serovar L2","24 h post-infection, added 8 h post-infection",,IC50,1.08 µg/mL
O=c1[nH]c(=O)c2ncn(CC(CO)OCP(=O)(O)O)c2[nH]1 (racemic),herpes simplex virus 2,cytopathic effect,"HEL, G",,,EC50,20000 nM
CN1CC(O)=C(C(=O)NC(C(=O)NC2C(=O)N3C2SC(C)(C)C3C(=O)O)c2ccccc2)C1=O (centres unmarked),Acinetobacter baumannii,"microbial growth, broth dilution",ATCC19606,,,MIC,100 µg/mL
Cc1ccc(Cn2cc(/C=C3\SC(=S)NC3=O)c3cc([N+](=O)[O-])ccc32)cc1,Trypanosoma equiperdum,,"trypomastigotes, IVM-t1",,,IC50,> 70 µM
CC1(C)SC2C(NC(=O)C(NC(=O)C3=C(O)C(Cc4ccccc4)NC3=O)c3ccccc3)C(=O)N2C1C(=O)O (centres unmarked),Escherichia coli,broth microdilution,"BW25113, Mueller-Hinton broth",,,MIC,100 µg/mL
Nc1ncnc2c1c(-c1ccc(F)cc1)cn2[C@@H]1O[C@H](CO)[C@@H](O)[C@H]1O,Trichomonas vaginalis,resorufin,"G3, metronidazole-sensitive","24 h + 2 h, 2% O2",,EC50,110 ± 34 nM
NC(=O)c1ncn([C@@H]2O[C@H](CO)[C@@H](O)[C@H]2O)n1,Cucumber mosaic virus,inactivation activity,host plant,500 µg/mL,,inhibition,52.4%
Nc1ccn(C[C@@H](CO)OCP(=O)(O)O)c(=O)n1,herpes simplex virus 2,cytopathic effect,"HEL, G",,,EC50,0.7 ± 0.37 µg/mL
C[C@H]1c2cccc(O)c2C(=O)C2=C(O)[C@]3(O)C(=O)C(C(N)=O)=C(O)[C@@H](N(C)C)[C@@H]3[C@@H](O)[C@@H]21,Pseudomonas aeruginosa,checkerboard broth microdilution,clinical isolate 8-97,together with: magainin II,,FIC index,1.5
CCC(=O)Nc1cc(C(=O)Nc2ccc(Cl)cc2)ccc1O,Enterovirus A,cytopathic effect,"Vero, EV71",48 h,,IC50,11.7 µM
Cc1ccc(-c2cn([C@@H]3O[C@H](CO)C[C@H]3O)c3ncnc(N)c23)cc1Cl,Trichomonas vaginalis,resorufin,"G3, metronidazole-sensitive","24 h + 2 h, 2% O2",,EC50,420 ± 21 nM
Nc1ncnc2c1ncn2CCOCP(=O)(O)O,herpes simplex virus 2,cytopathic effect,"primary human keratinocytes, G",,,EC50,13 ± 2.1 µg/mL
Nc1ncnc2c1c(-c1ccc(C(F)(F)F)cc1)cn2[C@@H]1O[C@H](CO)C[C@H]1O,Trichomonas vaginalis,resorufin,"G3, metronidazole-sensitive","24 h + 2 h, 2% O2",,EC50,260 ± 75 nM
CC1(C)CC[C@]2(C(=O)O)CC[C@]3(C)C(=CC[C@@H]4[C@@]5(C)CC[C@H](O)C(C)(C)[C@@H]5CC[C@]43C)[C@@H]2C1,Eimeria tenella,parasite growth,,24 h,,IC50,19.2 µM
Nc1ncnc2c1c(-c1ccc(Cl)cc1)cn2[C@@H]1O[C@H](CO)C[C@H]1O,Trichomonas vaginalis,resorufin,"G3, metronidazole-sensitive","24 h + 2 h, 2% O2",,EC50,170 ± 44 nM
CC(C)(O/N=C(\C(=O)N[C@@H]1C(=O)N2C(C(=O)[O-])=C(C[n+]3ccccc3)CS[C@H]12)c1csc(N)n1)C(=O)O,Pseudomonas aeruginosa,checkerboard,ATCC 27853,together with: magainin II,,FIC index,0.25
Nc1ncnc2c1c(-c1cc(Cl)cc(Cl)c1)cn2[C@@H]1O[C@H](CO)C[C@H]1O,Trichomonas vaginalis,resorufin,"G3, metronidazole-sensitive","24 h + 2 h, 2% O2",,EC50,9480 ± 1060 nM
colistin,Pseudomonas aeruginosa,checkerboard titration,17-99,together with: magainin II,,FIC index,1
